# Experimental data from different studies.
# Protocols differ between the studies behind these lines.
# Chain of UniProt P22303 (whole entry, looked up): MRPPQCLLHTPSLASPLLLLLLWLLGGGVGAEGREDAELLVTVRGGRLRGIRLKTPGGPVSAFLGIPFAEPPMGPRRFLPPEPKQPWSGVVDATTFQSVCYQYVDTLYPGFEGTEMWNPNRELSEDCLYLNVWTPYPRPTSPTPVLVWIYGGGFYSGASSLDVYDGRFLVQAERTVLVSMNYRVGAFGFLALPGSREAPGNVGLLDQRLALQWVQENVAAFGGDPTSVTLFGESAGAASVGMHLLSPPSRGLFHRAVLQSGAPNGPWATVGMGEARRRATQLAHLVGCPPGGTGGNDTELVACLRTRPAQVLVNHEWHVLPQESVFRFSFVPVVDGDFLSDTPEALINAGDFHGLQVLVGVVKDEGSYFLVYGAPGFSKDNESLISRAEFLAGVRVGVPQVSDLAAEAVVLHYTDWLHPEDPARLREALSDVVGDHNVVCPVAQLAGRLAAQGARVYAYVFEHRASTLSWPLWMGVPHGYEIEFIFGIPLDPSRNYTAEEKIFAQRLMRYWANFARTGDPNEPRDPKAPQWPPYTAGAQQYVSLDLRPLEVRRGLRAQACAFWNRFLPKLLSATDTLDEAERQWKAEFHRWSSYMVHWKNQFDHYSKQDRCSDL
# Chain of UniProt P29117 (whole entry, looked up): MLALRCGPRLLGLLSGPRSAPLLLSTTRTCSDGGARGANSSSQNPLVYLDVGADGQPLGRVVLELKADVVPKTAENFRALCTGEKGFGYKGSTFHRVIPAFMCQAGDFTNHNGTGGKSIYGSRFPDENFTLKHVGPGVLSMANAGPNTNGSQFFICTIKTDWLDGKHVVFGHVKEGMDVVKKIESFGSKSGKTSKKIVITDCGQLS
# Chain of UniProt P05181 (whole entry, looked up): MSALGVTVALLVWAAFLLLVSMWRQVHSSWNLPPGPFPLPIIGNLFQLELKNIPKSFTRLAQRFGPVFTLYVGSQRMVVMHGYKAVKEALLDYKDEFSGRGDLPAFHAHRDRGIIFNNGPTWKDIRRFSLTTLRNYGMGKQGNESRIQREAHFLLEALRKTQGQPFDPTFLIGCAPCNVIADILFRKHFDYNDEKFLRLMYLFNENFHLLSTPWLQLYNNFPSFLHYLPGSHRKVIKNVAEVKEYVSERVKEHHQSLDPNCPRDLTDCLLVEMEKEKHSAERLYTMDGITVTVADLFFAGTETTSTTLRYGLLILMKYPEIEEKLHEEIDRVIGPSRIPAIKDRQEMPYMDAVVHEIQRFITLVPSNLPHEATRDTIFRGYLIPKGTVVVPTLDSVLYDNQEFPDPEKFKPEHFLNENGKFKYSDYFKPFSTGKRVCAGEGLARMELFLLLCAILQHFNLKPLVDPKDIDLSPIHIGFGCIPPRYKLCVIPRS
# Chain of UniProt P49841 (whole entry, looked up): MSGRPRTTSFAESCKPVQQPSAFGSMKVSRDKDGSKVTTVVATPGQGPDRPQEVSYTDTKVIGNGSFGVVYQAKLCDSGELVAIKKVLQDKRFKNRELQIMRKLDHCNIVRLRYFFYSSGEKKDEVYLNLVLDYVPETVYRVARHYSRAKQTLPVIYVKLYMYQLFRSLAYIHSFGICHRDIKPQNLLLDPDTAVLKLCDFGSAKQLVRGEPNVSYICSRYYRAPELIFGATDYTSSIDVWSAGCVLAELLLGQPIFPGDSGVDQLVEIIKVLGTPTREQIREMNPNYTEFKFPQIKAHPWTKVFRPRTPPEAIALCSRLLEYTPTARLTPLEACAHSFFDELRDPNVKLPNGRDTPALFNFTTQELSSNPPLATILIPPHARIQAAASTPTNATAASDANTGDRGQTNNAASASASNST
# Chain of UniProt P33533 (whole entry, looked up): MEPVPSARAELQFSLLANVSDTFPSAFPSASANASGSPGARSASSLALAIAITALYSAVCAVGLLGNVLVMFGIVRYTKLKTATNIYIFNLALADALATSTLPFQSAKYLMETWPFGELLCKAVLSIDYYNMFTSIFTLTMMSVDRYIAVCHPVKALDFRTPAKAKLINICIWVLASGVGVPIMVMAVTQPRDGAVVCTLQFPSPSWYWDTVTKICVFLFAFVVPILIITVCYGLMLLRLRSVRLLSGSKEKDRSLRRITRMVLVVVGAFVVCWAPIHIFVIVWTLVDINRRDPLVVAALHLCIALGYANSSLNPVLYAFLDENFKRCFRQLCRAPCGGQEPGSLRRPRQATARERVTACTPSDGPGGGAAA
# Chain of UniProt Q9Y5X5 (whole entry, looked up): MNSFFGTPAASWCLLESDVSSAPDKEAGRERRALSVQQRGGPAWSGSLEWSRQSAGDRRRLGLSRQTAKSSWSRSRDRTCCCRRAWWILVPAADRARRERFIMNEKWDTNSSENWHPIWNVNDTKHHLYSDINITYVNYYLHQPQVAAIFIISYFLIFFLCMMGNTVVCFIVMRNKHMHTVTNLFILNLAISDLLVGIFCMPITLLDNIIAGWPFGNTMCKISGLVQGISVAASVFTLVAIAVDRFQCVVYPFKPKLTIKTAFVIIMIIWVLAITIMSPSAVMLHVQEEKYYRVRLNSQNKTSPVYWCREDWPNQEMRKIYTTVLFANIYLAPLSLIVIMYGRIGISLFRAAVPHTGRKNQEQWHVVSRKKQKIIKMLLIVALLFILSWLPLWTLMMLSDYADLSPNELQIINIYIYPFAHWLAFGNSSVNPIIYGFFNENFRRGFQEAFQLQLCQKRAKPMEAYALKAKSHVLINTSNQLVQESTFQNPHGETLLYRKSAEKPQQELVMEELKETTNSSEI
# Chain of UniProt P04062 (whole entry, looked up): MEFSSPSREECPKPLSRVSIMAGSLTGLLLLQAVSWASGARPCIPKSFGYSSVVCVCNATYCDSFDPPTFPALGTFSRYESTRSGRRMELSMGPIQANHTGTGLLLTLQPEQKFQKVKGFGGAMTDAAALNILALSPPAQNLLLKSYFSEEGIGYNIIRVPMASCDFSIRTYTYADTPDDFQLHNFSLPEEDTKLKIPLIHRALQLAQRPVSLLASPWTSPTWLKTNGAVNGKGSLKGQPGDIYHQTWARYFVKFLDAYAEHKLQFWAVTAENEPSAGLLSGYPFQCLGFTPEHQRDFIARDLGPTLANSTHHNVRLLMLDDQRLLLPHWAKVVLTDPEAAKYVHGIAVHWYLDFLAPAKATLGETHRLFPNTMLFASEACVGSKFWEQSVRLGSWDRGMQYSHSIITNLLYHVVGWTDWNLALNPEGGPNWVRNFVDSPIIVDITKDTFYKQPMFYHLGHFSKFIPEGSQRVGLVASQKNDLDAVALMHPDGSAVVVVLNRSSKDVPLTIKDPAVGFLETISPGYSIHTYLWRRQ
# Chain of UniProt P08172 (whole entry, looked up): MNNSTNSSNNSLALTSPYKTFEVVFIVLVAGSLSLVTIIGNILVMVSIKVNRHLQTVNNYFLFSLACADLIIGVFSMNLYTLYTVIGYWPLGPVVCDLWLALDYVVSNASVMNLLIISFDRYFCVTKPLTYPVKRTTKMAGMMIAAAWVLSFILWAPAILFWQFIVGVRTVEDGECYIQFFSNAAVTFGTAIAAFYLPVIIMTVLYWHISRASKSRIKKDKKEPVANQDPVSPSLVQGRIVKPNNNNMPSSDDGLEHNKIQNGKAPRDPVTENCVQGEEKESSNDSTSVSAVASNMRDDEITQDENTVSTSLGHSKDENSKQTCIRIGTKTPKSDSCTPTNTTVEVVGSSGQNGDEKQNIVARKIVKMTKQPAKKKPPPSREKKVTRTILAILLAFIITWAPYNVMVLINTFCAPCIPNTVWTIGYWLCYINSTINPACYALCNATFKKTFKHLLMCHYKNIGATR
# Chain of UniProt O15297 (whole entry, looked up): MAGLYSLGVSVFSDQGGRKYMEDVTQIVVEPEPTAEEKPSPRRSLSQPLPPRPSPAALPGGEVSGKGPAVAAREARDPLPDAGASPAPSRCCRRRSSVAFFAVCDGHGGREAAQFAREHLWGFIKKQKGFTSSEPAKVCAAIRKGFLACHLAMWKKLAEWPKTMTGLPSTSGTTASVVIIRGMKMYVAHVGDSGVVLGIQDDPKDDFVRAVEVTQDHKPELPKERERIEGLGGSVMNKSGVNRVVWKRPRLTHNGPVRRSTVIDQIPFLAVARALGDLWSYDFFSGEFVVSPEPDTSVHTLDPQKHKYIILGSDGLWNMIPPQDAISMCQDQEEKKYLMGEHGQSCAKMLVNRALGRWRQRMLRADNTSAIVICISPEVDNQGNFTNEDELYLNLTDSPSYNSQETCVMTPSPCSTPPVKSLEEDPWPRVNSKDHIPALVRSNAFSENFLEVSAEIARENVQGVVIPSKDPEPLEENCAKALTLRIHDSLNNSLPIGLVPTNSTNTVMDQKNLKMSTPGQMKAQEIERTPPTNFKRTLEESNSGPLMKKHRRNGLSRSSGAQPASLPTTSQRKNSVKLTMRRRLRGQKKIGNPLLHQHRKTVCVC
# Chain of UniProt Q06GJ0 (whole entry, unmodified, looked up): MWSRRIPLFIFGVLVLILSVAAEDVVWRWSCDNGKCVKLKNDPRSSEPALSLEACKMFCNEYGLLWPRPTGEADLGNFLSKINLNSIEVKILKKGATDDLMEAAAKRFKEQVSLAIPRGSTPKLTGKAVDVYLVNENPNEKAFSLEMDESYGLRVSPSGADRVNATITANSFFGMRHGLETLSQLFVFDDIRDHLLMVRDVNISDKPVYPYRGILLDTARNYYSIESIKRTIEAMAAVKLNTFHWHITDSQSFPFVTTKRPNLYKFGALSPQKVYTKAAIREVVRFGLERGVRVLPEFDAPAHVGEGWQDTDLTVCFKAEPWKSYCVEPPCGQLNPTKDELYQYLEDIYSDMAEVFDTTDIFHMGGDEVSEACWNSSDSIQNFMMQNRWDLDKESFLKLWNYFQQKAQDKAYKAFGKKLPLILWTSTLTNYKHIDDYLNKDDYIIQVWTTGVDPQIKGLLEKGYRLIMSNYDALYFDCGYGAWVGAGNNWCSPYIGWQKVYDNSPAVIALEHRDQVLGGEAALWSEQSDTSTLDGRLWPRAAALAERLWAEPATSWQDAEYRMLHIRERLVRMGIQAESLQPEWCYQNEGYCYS
SMILES,target or system,assay,test system,setting,measurement,value
CC[C@H](C)[C@@H]1NC(=O)[C@H](COP(=O)(O)O)NC(=O)[C@H](Cc2ccccc2)NC(=O)CSC[C@@H](C(N)=O)NC(=O)[C@H](CC(=O)O)NC(=O)[C@H](CC(=O)O)NC(=O)[C@H](Cc2ccc(OP(=O)(O)O)cc2)NC1=O,"Protein phosphatase 1D (PPM1D, Homo sapiens, UniProt O15297)","enzyme activity, inhibitor, absorbance",,,Ki,110 nM
C=CCOCC=C,"Cytochrome P450 2E1 (CYP2E1, Homo sapiens, UniProt P05181)","enzyme activity, inhibitor",,"1 h, pH 7.4",Ki,3100 nM
N=C(N)Nc1cccc(C(=O)NCC2(Nc3ccccc3)CCN(Cc3ccccc3)CC2)c1,"Neuropeptide FF receptor 2 (Homo sapiens, UniProt Q9Y5X5)",cell-free assay,,,Ki,993 nM
Cc1cc(O)cc(C)c1CC(N)C(=O)NC1CCNc2c(CCc3ccccc3)cc(Cc3ccccc3)cc21 (stereo not drawn),"Delta-type opioid receptor (Oprd1, Rattus norvegicus, UniProt P33533)","ligand displacement, radioligand",,cell membranes,Ki,1.4 nM
CC(C)=CCCC1(C)C=Cc2c(ccc3cc(-c4cc(O)cc(O)c4CC=C(C)C)oc23)O1 (stereo not drawn),"Glycogen synthase kinase-3 beta (GSK3B, Homo sapiens, UniProt P49841)","kinase activity, Kinase-Glo, Dixon plot",,"competitive with substrate, with: ATP 1 µM constant",Ki,3090 nM
"COC(=O)C1C(OC(c2ccc(Cl)cc2)c2ccc(Cl)cc2)CC2CCC1N2C (single isomer, unassigned)","Muscarinic acetylcholine receptor M2 (CHRM2, Homo sapiens, UniProt P08172)","ligand displacement, radioligand",,,Ki,1220 nM
O=c1ccoc2ccc(OCCCCN3CCCC3)cc12,"Acetylcholinesterase (ACHE, Homo sapiens, UniProt P22303)","enzyme activity, inhibitor, Ellman",,,Ki,1150 nM
NCCN1C(=O)c2cccc3cccc(c23)C1=O,"Chitooligosaccharidolytic beta-N-acetylglucosaminidase (Ostrinia furnacalis, UniProt Q06GJ0, W490A)",inhibitor,,,Ki,> 100000 nM
CCCCCCCCCCCC(=O)NCC(=O)NCC(=O)N[C@@H](CO)C(=O)NCC(=O)N[C@@H](CO)C(=O)NCC(=O)N[C@H]1CSSC[C@@H]2NC(=O)CNC(=O)[C@H](C)NC(=O)[C@H](CC(C)C)NC(=O)[C@@H]3CSSC[C@@H](C(=O)NCC(=O)O)NC(=O)[C@H](Cc4ccccc4)NC(=O)CNC(=O)[C@H](CC(N)=O)NC(=O)[C@@H]4CCCN4C(=O)CNC(=O)[C@H](CSSC[C@H](NC(=O)[C@H](CCCNC(=N)N)NC(=O)[C@H](CCSC)NC(=O)[C@H](CC(C)C)NC(=O)[C@H]([C@@H](C)CC)NC(=O)[C@H](CCCNC(=N)N)NC(=O)[C@@H]4CCCN4C1=O)C(=O)N[C@@H](CCCCN)C(=O)N[C@@H](CCC(N)=O)C(=O)N[C@@H](CC(=O)O)C(=O)N[C@@H](CO)C(=O)N[C@@H](CC(=O)O)C(=O)N3)NC(=O)[C@H](C(C)C)NC2=O,"Trypsin (Sus scrofa, UniProt P00761)","enzyme activity, inhibitor, fluorescence",,with preincubation,Ki,0.102 nM
CCCCCCCCNP(=O)(Nc1ccccc1)O[C@@H]1O[C@H](CO)[C@@H](O)[C@H](O)[C@H]1F (stereo partly drawn),"Lysosomal acid glucosylceramidase (GBA1, Homo sapiens, UniProt P04062)","enzyme activity, irreversible inhibitor",,"pH 5.5, 37 °C, with: 2,4-dinitrophenyl beta-D-glucopyranoside",Ki,4800 nM
C/C=C/C[C@@H](C)[C@@H](O)[C@H]1C(=O)N[C@@H](CC)C(=O)N(C)C(Cc2ccc(C(=O)NCCCCCCNC(=O)OCC3c4ccccc4-c4ccccc43)cc2)C(=O)N(C)[C@@H](CC(C)C)C(=O)N[C@@H](C(C)C)C(=O)N(C)[C@@H](CC(C)C)C(=O)N[C@@H](C)C(=O)N[C@H](C)C(=O)N(C)[C@@H](CC(C)C)C(=O)N(C)[C@@H](CC(C)C)C(=O)N(C)[C@@H](C(C)C)C(=O)N1C (stereo partly drawn),"Peptidyl-prolyl cis-trans isomerase F, mitochondrial (Ppif, Rattus norvegicus, UniProt P29117)","PPIase activity, inhibitor",,"pH 7.5, 15 °C",Ki,160 nM
CN[C@](C)(C[18F])C(=O)O,DU-145 tumour model,,"host not given, kidney","1 h, tumour-bearing",tracer uptake,6.4 %ID/g

# For quick reference, copied from above:
SMILES,target or system,assay,test system,setting,measurement,value
CC(C)=CCCC1(C)C=Cc2c(ccc3cc(-c4cc(O)cc(O)c4CC=C(C)C)oc23)O1 (stereo not drawn),"Glycogen synthase kinase-3 beta (GSK3B, Homo sapiens, UniProt P49841)","kinase activity, Kinase-Glo, Dixon plot",,"competitive with substrate, with: ATP 1 µM constant",Ki,3090 nM
